Measured values pooled from the literature.
Each numbered part is a random draw from the data of one study; scales do not carry over between parts. Changes are numbered by the printed parent chain.

Set 1
Target: Histone acetyltransferase KAT6A, winged helix 1, GST fusion (KAT6A, Homo sapiens, UniProt Q92794, residues 1-85)
Technique: protein binding microarray
Molecule type: double-stranded DNA, one strand shown
Sample: in vitro
Tested at: not given
Notes: 8-mer, flanks averaged, mean of 2 arrays, mostly near background
Baseline: not given
Reading: higher = stronger binding
Target sequence (chain): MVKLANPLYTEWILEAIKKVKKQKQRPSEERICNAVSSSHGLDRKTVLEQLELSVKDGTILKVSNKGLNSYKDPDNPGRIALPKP
Strand	E-score
CACTCACA	-0.131
ATAACCAC	-0.212
TCACGGCA	0.355
GGGTCTGA	0.0395
CGACGTCG	0.106
GTATGCGA	0.209
ATGACGGG	0.326
ACGCGCGT	0.449
CCCTAGGC	-0.111
TACTTTGA	-0.327
CATAGGGA	-0.199

Set 2
Target: CCND1, cyclin fold, Cln2 fusion (human)
Technique: yeast growth competition, sequencing
Sample: yeast
Notes: weak parent motif
Baseline: not given
Reading: higher = stronger binding
Parent: CABLES2 docking peptide (human); ICAKRSLCAAFSV; partner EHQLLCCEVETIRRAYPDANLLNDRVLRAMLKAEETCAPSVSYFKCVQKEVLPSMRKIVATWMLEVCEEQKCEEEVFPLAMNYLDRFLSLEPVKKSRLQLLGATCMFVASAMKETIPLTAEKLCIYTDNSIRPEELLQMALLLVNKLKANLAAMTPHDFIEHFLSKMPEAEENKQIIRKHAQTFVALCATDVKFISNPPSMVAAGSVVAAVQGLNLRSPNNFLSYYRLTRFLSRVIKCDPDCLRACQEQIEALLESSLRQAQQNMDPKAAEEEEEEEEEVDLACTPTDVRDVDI
Substitution	normalised enrichment score
R5A	-0.0719
F11A	-0.101
C8A	-0.0924
C2A	-0.167
V13A	0.0474

Set 3
Target: ABI1, truncated, D143A, DHFR fusion (Arabidopsis thaliana)
Technique: DHFR PCA, deep sequencing
Sample: yeast
Notes: methotrexate growth selection, single substitutions
With: (+)-ABA 2500 µM
Baseline: wild-type fitted maximum
Reading: higher = stronger binding
Parent: PYL1, truncated, DHFR fusion (Arabidopsis thaliana); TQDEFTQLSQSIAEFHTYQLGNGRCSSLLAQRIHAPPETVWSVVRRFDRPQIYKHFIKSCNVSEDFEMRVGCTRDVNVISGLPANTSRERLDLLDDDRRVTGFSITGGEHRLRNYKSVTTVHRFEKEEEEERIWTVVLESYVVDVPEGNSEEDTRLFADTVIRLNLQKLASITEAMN
Substitution	relative binding score
S140F	34.2%
V145G	40.8%
L112W	31.3%
A158C	99.4%
A175Y	94.1%
F56E	-7.25%

Single results of other studies
Molecule	target	assay	system	conditions	scale	measurement	result
PhoQ, residues 284 288 289 292 302 303 SCEHLI	PhoP, residues 12 14 15 18 19 LHHVQ (Escherichia coli, UniProt P23836)	Sort-seq, refers to: YFP reporter	E. coli	PhoQ-PhoP variant library, with: 10 µM Mg2+	baseline: high Mg2+ state, higher = stronger signaling	fold induction	16.5

For quick reference, copied from above (set 3):
Substitution	relative binding score
A175Y	94.1%
S140F	34.2%
